Published values pooled from the literature.
A part holds a random share of what one study measured.

Block 1 — technique: protein binding microarray; form: double-stranded DNA, one strand shown; matrix: in vitro; tested at: not given; relative to: not given; reading: higher = stronger binding; measurement: E-score
Target: Histone acetyltransferase KAT6A, winged helix 1, GST fusion (KAT6A, Homo sapiens, UniProt Q92794, residues 1-85)
Setting: 8-mer, flanks averaged, mean of 2 arrays, mostly near background
Target sequence (chain): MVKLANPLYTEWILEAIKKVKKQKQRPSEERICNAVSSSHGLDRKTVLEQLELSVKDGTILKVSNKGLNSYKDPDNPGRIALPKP
ATTCGTGC: -0.129
TGGTTAAA: -0.103
ACCCGGCA: 0.192
CAGTTGCG: 0.0486
GTAACGAA: -0.0715
GGAACCCA: -0.134
AACACGTG: -0.0923
GTAACGTA: -0.01
CCGAAAGG: 0.00681
TAGACGAA: -0.0707
CTCCACCA: -0.187
AACCGTAA: 0.25
ATAGCATA: -0.157
AAGGCACG: 0.0641
CTTTTCTA: -0.191
AACCAATC: -0.231
GAGTCCTA: -0.137
CGTGCCGA: 0.31
CAGATCAG: -0.0741
CGCAGAAC: 0.261
CCTATTCC: 0.0842
CAGCCAGA: -0.156
GGTCCGGA: 0.119
TAATTCCA: -0.206
AGCGTACG: 0.332

Block 2 — technique: universal PBM; form: double-stranded DNA, one strand shown; matrix: in vitro; tested at: 600 nM; reading: higher = stronger binding; measurement: E-score
Target: Sal-like protein 4, full length isoform A (SALL4, Homo sapiens, UniProt Q9UJQ4, residues 1-1053)
UniProt Q9UJQ4, sequence (whole entry, looked up): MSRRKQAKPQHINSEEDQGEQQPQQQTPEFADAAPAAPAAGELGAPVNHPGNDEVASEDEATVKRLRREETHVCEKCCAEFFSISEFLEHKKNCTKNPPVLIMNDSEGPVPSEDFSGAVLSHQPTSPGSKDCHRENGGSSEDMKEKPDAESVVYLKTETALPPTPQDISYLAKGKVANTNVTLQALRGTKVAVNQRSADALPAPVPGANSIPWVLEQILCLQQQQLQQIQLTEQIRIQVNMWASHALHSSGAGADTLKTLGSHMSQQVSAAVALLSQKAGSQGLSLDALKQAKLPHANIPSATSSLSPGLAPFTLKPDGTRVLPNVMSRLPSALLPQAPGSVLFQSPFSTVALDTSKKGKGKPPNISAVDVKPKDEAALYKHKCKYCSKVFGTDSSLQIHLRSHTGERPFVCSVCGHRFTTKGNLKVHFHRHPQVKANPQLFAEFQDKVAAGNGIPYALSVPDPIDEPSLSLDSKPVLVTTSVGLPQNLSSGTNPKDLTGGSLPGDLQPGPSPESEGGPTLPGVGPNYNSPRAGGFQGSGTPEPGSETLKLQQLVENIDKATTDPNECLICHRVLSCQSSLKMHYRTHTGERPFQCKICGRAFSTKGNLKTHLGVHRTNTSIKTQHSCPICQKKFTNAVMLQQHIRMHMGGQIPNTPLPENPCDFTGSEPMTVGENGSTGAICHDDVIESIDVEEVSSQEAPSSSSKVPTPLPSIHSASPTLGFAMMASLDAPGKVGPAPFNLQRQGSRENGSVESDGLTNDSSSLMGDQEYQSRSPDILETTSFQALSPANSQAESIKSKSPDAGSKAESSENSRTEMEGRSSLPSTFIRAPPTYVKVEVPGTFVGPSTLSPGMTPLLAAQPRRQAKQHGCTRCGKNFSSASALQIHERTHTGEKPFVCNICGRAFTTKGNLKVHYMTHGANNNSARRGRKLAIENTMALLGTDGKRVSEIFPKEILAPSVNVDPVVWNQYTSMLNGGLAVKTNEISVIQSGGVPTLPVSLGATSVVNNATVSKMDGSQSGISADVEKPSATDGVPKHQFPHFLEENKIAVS
Setting: 8-mer, flanks averaged, mean of replicates
ATGCCCAT: -0.084
ATTTGTTC: 0.304
TAATTACA: 0.301
GACATCGA: 0.0126
CAAGAGAC: -0.137
ACGCGTCG: -0.0523
GGTATTAC: 0.195
AAGTGCGT: -0.105
AACCTACC: -0.135
CGAGCCCG: -0.328
CTCGTGCA: 0.0344
ACGACTGG: -0.179
ATGCACAT: 0.235
TAGTGGCA: -0.0759

Block 3 — technique: RNA Bind-n-Seq; form: RNA; matrix: in vitro; tested at: 15 pmol; setting: 4-mer, random 30-nt RNA, single round; together with: 3 µM RocA, 2 mM AMP-PNP; relative to: mean of 4-mers; reading: higher = stronger binding; measurement: 4-mer enrichment Z-score
Target: Eukaryotic initiation factor 4A-I (EIF4A1, Homo sapiens, UniProt P60842, residues 1-406, full length assumed)
UniProt P60842, sequence (whole entry, looked up): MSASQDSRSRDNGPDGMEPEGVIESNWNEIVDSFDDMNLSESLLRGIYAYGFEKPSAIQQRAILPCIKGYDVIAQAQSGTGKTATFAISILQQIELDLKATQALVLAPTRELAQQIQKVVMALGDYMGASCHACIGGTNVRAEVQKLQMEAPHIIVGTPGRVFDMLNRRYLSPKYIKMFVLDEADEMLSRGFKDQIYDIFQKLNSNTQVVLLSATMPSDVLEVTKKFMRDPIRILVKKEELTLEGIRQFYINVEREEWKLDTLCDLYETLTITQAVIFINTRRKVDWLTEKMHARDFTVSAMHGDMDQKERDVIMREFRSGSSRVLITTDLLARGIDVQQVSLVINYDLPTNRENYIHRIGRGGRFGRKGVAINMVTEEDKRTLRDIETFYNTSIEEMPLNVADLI
UCGA: -0.136
AUCC: -1.18
CCCA: -1.18
CAGC: -0.888
CACU: -1.35
UCGG: -0.163
AACA: -0.61
UUAU: -0.0883
AGUA: 0.919
ACAG: -0.439
GCCU: -0.802
ACGC: -0.623
GAUG: 1.24

Block 4 — technique: RNA Bind-n-Seq; form: RNA; matrix: in vitro; tested at: not given; relative to: input RNA pool; reading: higher = stronger binding; measurement: bound/input enrichment
Target: RING finger protein unkempt homolog, zinc fingers 1-6, GST-SBP tag (UNK, Homo sapiens, UniProt Q9C0B0, residues 30-357)
UniProt Q9C0B0, sequence (30-357, looked up): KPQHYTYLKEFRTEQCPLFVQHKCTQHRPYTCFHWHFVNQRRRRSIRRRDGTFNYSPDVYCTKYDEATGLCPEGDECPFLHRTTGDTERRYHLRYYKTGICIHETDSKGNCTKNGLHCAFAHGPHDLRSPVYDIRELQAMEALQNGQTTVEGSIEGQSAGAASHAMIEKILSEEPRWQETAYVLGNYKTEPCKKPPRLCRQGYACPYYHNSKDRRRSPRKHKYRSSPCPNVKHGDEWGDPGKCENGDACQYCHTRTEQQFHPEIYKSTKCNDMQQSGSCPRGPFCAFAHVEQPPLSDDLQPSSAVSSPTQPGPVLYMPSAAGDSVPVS
Setting: RNA with constant flanks, human and mouse sites, ends assumed
Constant ends, left off below: GGGAGUUCUACAGUCCGACGAUC … CAACAGAGGAUUGAGCAUCA
CUUUUUAAGAAGAUAUGUGAUGGGAUCUUUUAUACCCCUCAGUACUUAAACCCUUCAGUAAUCAGCCUUUUGAAACAUAUGCUGCAGGUGGAUCCCAUGAAGAGGGCCGCAAUAAAAGAU: 0.224 ratio
CUGGUGGAGAUCCCUACCCCUCAGGAUUACUGGGGCCCGGUGUUUGCCAUCUGCAUCUUCCUCUUCUCCUUCAUCGUCCCCGUGCUCGUCAUCUCUGUCUGCUACAGCCUCAUGAUCCGG: 0.319 ratio
GUAGCUGAUGCUGUCACCUACCAGCUCGGUUUCCACAGCAUUGAACUGAAUGAGCCUCCACUGGUCCACACAGCAGCCAGCCUCUUUAAGGAGAUGUGUUACCGAUACCGGGAAGACCUG: 0.112 ratio
AGCUCAACAAUUGAGGCAGAGGAACAAAAGAUACCCGAAGACAGUAUCUAUAUUGGAACUGCCAGUGAUGAUUCUGAUAUUGUUACCCUUGAGCCACCUAAGUUAGAAGAAAUUGGAAAU: 2.73 ratio
CAAGUACAUCUUGGUGUUAGUGAUGAUCUUGGAUUGCUUGCUCACAUGACCGGUAGCGUAGACUUAACUUGUACAUCCAGUAUAAUAGAAGAAAAAGAAUUCAAAAUCCAUACAACUUCA: 1.41 ratio
AUUCUCUACGACAAGGAUCAUUACAAGUUGGCUCUGGGGCAAAUAAAUAUUGCCAAAAAUUUAGUGGACAAUGUUGCUAAAGAUUAUGUGCGACUGAUGAAGUAUGGCGACUCUCUCUAC: 0.301 ratio
AAUCAAGGAGUCUGAUUGCAGGAAGGAAAGAGCAUGUAAGAAACACAUUUUUUAAAGUGUUAUUUUGUAUAAAUGGGAAGAAAGACGCAAUUAAGUUAUUGACACUUGGGACCUGGACGA: 0.465 ratio
AGUGAAGAAAAUGCUGAGCCGGAUCUCGAUGACAAUGAGGAGGAGGAGGAGCCUGCUGUAGAAAUUGAACCUGAGCCAGAGCCUCAGCCCCAGCCUCCGCCUCCACCUCAGCCUGUGGCC: 0.254 ratio
UAUACAAAAAUUCCAGAUCCAAGCACCUGGAACCUCAACCCAGAUGCCUCCUACGUGUAUUAUUGCGCAAAUGAGACGGUGCAUGGUGUGGAGUUUGACUUUAUACCCGAUGUCAAGGGA: 0.172 ratio
CUGUUCUAUUUCUCCUUCGGCCGCCGCCGCCACUGCUGCACACAGCUGGUGUCGGUGCCGCGCUUUUACCCCCAAGUCGUUCCCGCAGCCUAUGGCCCAGGCCGCCUUGGGUAUUUCUGC: 0.118 ratio
GUCAUCAAGUUUGAUAAGGAGGAAGAGGCCGUCGCCAUCGCAAAUGCAGCUGAGGUUGGAUUGGCAGGUUACUUUUACUCUCAAGACCCGGCCCAGAUCUGGAGAGUGGCGGAGCAGCUG: 0.391 ratio

Block 5 — technique: protein-binding microarray; form: double-stranded DNA, one strand shown; matrix: in vitro; tested at: 2200 nM top; setting: 60-bp whole probe; together with: salmon DNA 0.4 mg/ml; relative to: random background probes; reading: higher = stronger binding; measurement: fitted relative affinity; constant ends, left off below: GCCTAGCAC … GTCTTGATTCGCTTGACGCTGCTG
Target: Interferon regulatory factor 7, full length, phosphomimetic (IRF7, Homo sapiens, UniProt Q92985, residues 1-503, S471D/S472D/S475D/S476D/S477D/S483D/S484D/S487D)
UniProt Q92985, sequence (whole entry, unmodified, looked up): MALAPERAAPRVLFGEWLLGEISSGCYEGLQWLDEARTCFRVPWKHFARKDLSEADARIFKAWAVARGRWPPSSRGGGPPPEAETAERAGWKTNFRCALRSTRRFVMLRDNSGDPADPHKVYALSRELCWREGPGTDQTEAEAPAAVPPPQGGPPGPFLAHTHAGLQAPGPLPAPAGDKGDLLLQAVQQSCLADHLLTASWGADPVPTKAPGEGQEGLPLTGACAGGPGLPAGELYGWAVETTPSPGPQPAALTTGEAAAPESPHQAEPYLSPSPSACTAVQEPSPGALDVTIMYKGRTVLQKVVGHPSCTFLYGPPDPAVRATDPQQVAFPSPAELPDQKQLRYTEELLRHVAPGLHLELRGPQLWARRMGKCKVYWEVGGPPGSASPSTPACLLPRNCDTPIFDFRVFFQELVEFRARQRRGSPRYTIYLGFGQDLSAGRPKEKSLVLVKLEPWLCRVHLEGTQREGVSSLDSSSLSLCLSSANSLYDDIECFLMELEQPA
TTAGATATCAGACTCGATTAGTGCTAG: 0.239 z-score
TTAGAACTTGGGTATCGATTAGTGCTA: -0.393 z-score
TTAGGTTTCGGGTAGCGGTTAGTGCTA: 5.75 z-score
GACGGACTGGGGTATGGGGACGTGCTA: -0.556 z-score
TAAGGTTTCCTTCTCCTTTAGTGCTAG: 2.31 z-score
GAACATATTTGTTTCCATTTGTGCTAG: 3.91 z-score
GACGATATCGGGTTCCGAGACGTGCTA: 0.21 z-score
GACGGTATCGGGACTGGGGAGGTGCTA: -0.327 z-score
TTAGATATCACACTGGATTAGTGCTAG: 0.161 z-score
GACGGTTTCGACACTCGGGACGTGCTA: 3.22 z-score
TTAGATATCAGTTTCGCTTAGTGCTAG: 5.43 z-score
TTAGGATTGCTTTTCCTTTAGTGCTAG: 1.62 z-score
GGCGGTCTCGGACTGGGGACGTGCTAG: -1.12 z-score
TTAGGTCTCCAACTGCTTTAGTGCTAG: 0.309 z-score
GACGGTTTCCTACCGCTGACGTGCTAG: 1.41 z-score
TTCCAATTCTCTTTTCACTTGTGCTAG: 3.24 z-score
GACGGTTTCAGACTGGGGACGTGCTAG: 1.13 z-score
TTAGGTCTGGGTATCGGTTAGTGCTAG: 0.342 z-score
GACGAACTGAGTATCGATACGTGCTAG: 0.274 z-score
GTAGATCTCAGACTGGATTAGTGCTAG: 0.00471 z-score
TTAGGAATGCTACTGCTTTAGTGCTAG: -0.272 z-score
TTAGGTCTCCTTATCCTTTCGTGCTAG: 1.42 z-score
GTAGATTTCAGTTCCGATTAGTGCTAG: 2.33 z-score
TTAGGTATCGGTTTCGGGTAGTGCTAG: 5.75 z-score
GACGCTTTCGACTATCGGGACGTGCTA: 4 z-score

Excerpt of the above (block 5):
TTAGATATCAGACTCGATTAGTGCTAG: 0.239 z-score
TTAGGTATCGGTTTCGGGTAGTGCTAG: 5.75 z-score
TTAGGTCTCCAACTGCTTTAGTGCTAG: 0.309 z-score
TTAGGAATGCTACTGCTTTAGTGCTAG: -0.272 z-score
GAACATATTTGTTTCCATTTGTGCTAG: 3.91 z-score
GACGAACTGAGTATCGATACGTGCTAG: 0.274 z-score
GACGGTATCGGGACTGGGGAGGTGCTA: -0.327 z-score
TTAGAACTTGGGTATCGATTAGTGCTA: -0.393 z-score
GACGGTTTCCTACCGCTGACGTGCTAG: 1.41 z-score
GGCGGTCTCGGACTGGGGACGTGCTAG: -1.12 z-score
TTAGATATCACACTGGATTAGTGCTAG: 0.161 z-score
GACGCTTTCGACTATCGGGACGTGCTA: 4 z-score
GTAGATCTCAGACTGGATTAGTGCTAG: 0.00471 z-score
GACGGTTTCAGACTGGGGACGTGCTAG: 1.13 z-score
